Results from different studies.
Parts stem from different laboratories: compare values within a part only.

Block 1
Target: RNA binding protein fox-1 homolog 2, RRM domain, GST-SBP tag (RBFOX2, Homo sapiens, UniProt O43251-10, residues 100-194)
Method: RNA Bind-n-Seq
Form: RNA
Sample: in vitro
Concentration: 365 nM
Setting: natural RNA segment, single round, ends assumed
Reference: no-protein control
Direction: higher = stronger binding
Constant ends, left off below: GGGAGUUCUACAGUCCGACGAUC … UGGAAUUCUCGGGUGCCAA
Target sequence (chain): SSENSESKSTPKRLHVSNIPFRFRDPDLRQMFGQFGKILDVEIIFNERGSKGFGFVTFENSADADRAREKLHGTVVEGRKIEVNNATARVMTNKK
Oligonucleotide | RBNS enrichment (R)
CCUGCUGAACGGGGCUGCAAGGCCAAGGCUCCUUAAGGGAGGUCCUUACCUCCAAUCCAGUUAGAGCAAUAACCACUUUUUAAAUGUAAAAUAAAGACAAAUGAAAAGGC | 0.226
UUAGAUUGCUCUUUGGUCCCAGCUCAUGUUCAUCACUCCCUUCAAAGCCUUUCUUCCUUUAUAUCUUCUGACUGAGCUCUCCCUGAUUGACAUCACCUCAUGCGAUGACC | 0.864
AUCAAGCUGUUGGGAGAAAUGGGAGGGCAGGGGAAAGAUGUAAAGCCAAAGUACAGCAGGAACCCACCACCUGUUUCCCUUCCUUCUCCCAUUCUACUCCCAGUCCGGAA | 0.398
UUCAUGUGGCAGGAAACUGGAAUAUCGCUUUUAAUAAAAUGGAAAAAUAUGCUUCUACAUAUUUACCACCAUAGGCGUUUUGUUCAUAUGAGCCUGGUUUGUGCAAAAUU | 0.581
UAGGAUAAAAAUGCACUGGUGAAGCAAAUGUAGUGCCAACAGAAGGUGAUUUUCCAGUUGUAAAUGUCAUGCAGCAUUUGAAGGGACUGUGUUUUCUUAAAAAAAAAUCA | 0.454
UUUAUGCCUAGGCUUGUCAAGAAUCUGUUCAGUCCCUCUCCUUCUCAAUAAAAGCAUCUUCAAGCUUUCAUGUGCCUCCCUCGCAGCUUCUUCUGGGCCUGAGGGAGACC | 0.321
UACCUAUCUAAUGUGCUAUGUUUAUCAAAUCGUGUACUAAAAUGGAAAGCUAGUUUUGAGAAAUUAUUCAGAAGCCUUGUUAUUUUAAAAAUGAAAUAUUUCAAAGACUG | 2.48
UCACUGUAUAGACUGUUAAAUUUGAUUUCUUAUUACCUAUUGUUAAAUAAACUGUGUGAGACAGACACCCUGACUUUGUUUCACUUGAUAACACAUCUUUGUCUUGGAGU | 1.01
AUAUAGUCAACUCUUGAUUAUCCACGUGUGGAUUAUCCACCAUGCCAGGAAGACCCAUAACUGGUUUUAACACUAACUAGAGGGAAUGACUUCUUUGCAUAGUGAGUGAC | 0.231
AAAUUCUUUUGGUAGAAAUCCCUGAAGAGGUGCACCCAUCACUCAGUGCCCAGGGUCCUUUUCUGGCGAGAUGAGGCCAUGCACCACUUGCUCAGCACAGAGGCCAGCUU | 0.258
UUGCAUCCCCAGGGGCUGCCGCAGAGGCCGGAGACCUCCUGGACUAGUUCGGCGAGGAGACUGGCCACUGGGGGUGGCUGUUCGGGACUGAGAGCGCCAAGGGUCUUUGC | 0.821
UCUCCCAAUUAUUUUCAUAUGAAAGCACCUACAAUUAGCCUGUUAGUCCUAUUCAGAUACAUCAAAUAUCAGUGAAUGCUUUACUAUUCGCACAUUUAAGCAUCUUUGUU | 1.66

Block 2
Target: Interferon regulatory factor 7, full length, phosphomimetic (IRF7, Homo sapiens, UniProt Q92985, residues 1-503, S471D/S472D/S475D/S476D/S477D/S483D/S484D/S487D)
Method: protein-binding microarray
Form: double-stranded DNA, one strand shown
Sample: in vitro
Concentration: 2200 nM top
Setting: 60-bp whole probe
Together with: salmon DNA 0.4 mg/ml
Reference: random background probes
Direction: higher = stronger binding
Constant ends, left off below: GCCTAGCAC … GTCTTGATTCGCTTGACGCTGCTG
Target sequence (chain): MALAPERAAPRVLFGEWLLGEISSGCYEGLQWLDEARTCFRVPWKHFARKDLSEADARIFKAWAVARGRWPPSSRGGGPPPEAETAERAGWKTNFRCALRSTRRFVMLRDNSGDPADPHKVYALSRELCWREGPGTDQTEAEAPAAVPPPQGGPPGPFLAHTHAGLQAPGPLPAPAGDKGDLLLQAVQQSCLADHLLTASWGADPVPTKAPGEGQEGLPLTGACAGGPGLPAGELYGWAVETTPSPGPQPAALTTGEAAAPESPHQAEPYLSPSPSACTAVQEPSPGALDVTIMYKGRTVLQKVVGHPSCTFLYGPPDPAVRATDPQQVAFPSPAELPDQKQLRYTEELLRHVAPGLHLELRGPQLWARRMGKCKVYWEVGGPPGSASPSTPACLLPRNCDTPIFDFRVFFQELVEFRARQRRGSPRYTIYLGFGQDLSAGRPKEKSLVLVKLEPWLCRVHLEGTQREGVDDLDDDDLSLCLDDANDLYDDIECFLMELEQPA
Oligonucleotide | fitted relative affinity
TCATTTTTCATTTTTTTACTGTGCTAG | 3.39 z-score
TTAGATTTCGGGTATCGGTTAGTGCTA | 3.28 z-score
TTAGGTATCCTACTTCTTTAGTGCTAG | 0.731 z-score
GACCAACTGAGTATCGAGACGTGCTAG | -0.0542 z-score
GGCGATATCAGTCTCGAGACGTGCTAG | -0.148 z-score
GTGTTTTCATTTTATGACAGCGTGCTA | 5.12 z-score
CCAATTCTTTTTATGCTTTCGTGCTAG | 2.3 z-score
ATTTTTTTTAGTGGATGAAAGTGCTAG | 0.334 z-score
TTAGGTTTCCTTCTCCTTTGGTGCTAG | 2.31 z-score
TTAGGTATCCTTCTCCTGTAGTGCTAG | 1.19 z-score
GCCCCACCCACTCTGGCCCCGTGCTAG | -0.0145 z-score
AACGGTATCGGTTTCGGGACGTGCTAG | 4.3 z-score
GACGATATCAGTATCGACACGTGCTAG | 0.391 z-score
GACGGTATCCTGCTGCTGACGTGCTAG | 0.618 z-score
GACGGTTTCCTTCTCATGACGTGCTAG | 2.75 z-score
GACGATCTCAGTTTCGCGACGTGCTAG | 2.16 z-score
CTGACTTTGGAGATGACTCAGTGCTAG | 0.133 z-score
CCGAAAATGCCCTTTTGGTGAGTGCTA | 1.76 z-score
TTAGGTATCCGTCTCCTTTAGTGCTAG | 0.985 z-score

Block 3
Target: Phosphate system positive regulatory protein PHO4, full length, GST-tagged (PHO4, Saccharomyces cerevisiae, UniProt P07270, residues 1-312)
Method: competition protein-binding microarray
Form: double-stranded DNA, one strand shown
Sample: in vitro
Concentration: 2 µM
Setting: whole 60-bp probe, lowest competitor level
Together with: Cbf1 competitor, 0.05 µM
Direction: higher = stronger binding
Constant ends, left off below: … GTCTTGATTCGCTTGACGCTGCTG
Residues (chain): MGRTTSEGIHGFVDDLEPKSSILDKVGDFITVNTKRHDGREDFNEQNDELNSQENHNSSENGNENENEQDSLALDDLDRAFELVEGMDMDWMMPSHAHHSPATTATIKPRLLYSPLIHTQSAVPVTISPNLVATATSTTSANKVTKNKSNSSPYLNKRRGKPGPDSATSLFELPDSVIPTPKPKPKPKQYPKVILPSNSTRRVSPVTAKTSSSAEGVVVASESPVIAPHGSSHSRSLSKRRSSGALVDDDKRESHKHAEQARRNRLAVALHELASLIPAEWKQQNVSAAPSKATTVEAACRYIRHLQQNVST
Oligonucleotide | fluorescence intensity [a.u.]
GAAACCTTTTCCTCTTGCTCACCAGCTTCATTCTCG | 2510
CCAGGCTTAGATTTTCATGTGAAAAGATAATGTGTA | 3300
CTAACGAAGGTTTGGACGGTGGGTGACAAGCCAAGT | 3410
GTCTTGTCTCATTTTCACGTGTAGTTCCCCACTTCA | 11000
CTAACGAAGGTTTGCCGCGTGGGTGACAAGCCAAGT | 10700
AAATTACTAAGTTGCGATGTGGGTGACGCCGTATGA | 4330
CTGCTTCACAGTTTGCACGTAACTTGCTGAGGGGCC | 5040
TTCCTGTAACACTGGCACGCTTGAAGTGAGCATAAA | 7490
CAGTTGCGACAGCAGCTCGTGTGAAGGTCGCTGGCG | 8160
GAAATGGTAGTTACACGCGTGAAATCAGGGTCTTAA | 6570
CATACCCAACCTTGTTGTGTGGGTGAAGATATTTGT | 4910
TAACGAAAATGTTAGCACGTCGCGTTTATGGCCCCA | 6690
ACCGGTGCAACTTTCCACATGCACTCTCATTGAGAC | 7590
CTTTCCCGATCTTGCCGAGTGGGTGTAGCACATTTG | 4800
CATACCCAACCTTGCTAGGTGGGTGAAGATATTTGT | 3650
AAAGCGGTAATTTGGAAGGTGGGTGCAGATATCTAT | 4580
TAAACGAGTACTTCACACGTAGGCCAAAGCACTCCA | 4820
AAATTACTAAGTTGATCCGTGGGTGACGCCGTATGA | 5380
AATAAATACGAGCATCACAATACCCCAAGAGGAGAA | 3630
TATACGAATGTTACCCACGATGGCCGGAGTAGCTGT | 12700
GTCTTGTCTCATTGTCACGAGACTTTCCCCACTTCA | 6380
ACAACTGCGGGGACGCATGTGCTCTAAAGAAAGCAG | 13500
GACAGATAGGACAAGCATGTGGTCTTGGCGCCTCTG | 10300
CATACCCAACCTTGCCTTGTGGGTGAAGATATTTGT | 6390
CTACGGTTCCTGCCGCTCGTGGGTACCCCAAGCAAA | 9700

Block 4
Target: Fragile X messenger ribonucleoprotein 1, C-terminal low-complexity region (Fmr1, Mus musculus, UniProt P35922)
Method: RNA Bind-n-Seq
Form: RNA
Sample: in vitro
Concentration: 200 nM
Setting: whole 134-nt RNA, ends assumed
Together with: 150 mM KCl
Reference: input library
Direction: higher = stronger binding
Constant ends, left off below: GGGAGUUCUACAGUCCGACGAUC … UGGAAUUCUCGGGUGUCAAGG
Oligonucleotide | log2 enrichment
CUCAACGUUGACAGUAAUGAACAAGGCUCCUAUGUAGUGGCCAUGGAAACCUUUACCAACUUAGGACCCAUUGUCGAUAUGUGCGUGGUG | -0.438
AGUCCUGUGCUACACAUCGUAUGUACCGAAUCGGGGCCCCGGGGCCCCGGGCCCCGGGAAAGUAUUAUGUUACGCCGUUCGGAUCUGCAC | -1.59
UGGCCCUGGUGGCAUGCGGGGAGGAAGAGGUGGCCUCAUGGAUCGUGGUGGUCCCGGUGGAAUGUUCAGAGGUGGCCGUGGUCGAGACAG | -0.219
AGUCCUGUGCUACACAUCGUAUGUACCGAAUCGGGGUGGGGUUUGGGGAAAAAGGGGAAAGUAUUAUGUUACGCCGUUCGGAUCUGCACU | 0.788
CCUGUGCUACACAUCGUAUGUACCGAAUCGGAAAAAAAGGGAAAAAAAGGGAAAAAAAGGAAAGUAUUAUGUUACGCCGUUCGGAUCUGC | -0.854
CACAGACAACACGCACCCACACAGACACAGAGGGAAGGGGCUGGGAUGGGGACAGGGUGCACAGCAGGGCGGGGUAGGACCCCAGCCCCU | 1.24
UAACUUUAGAGGAGGAUCUGAUGGAUAUGGCAGUGGACGUGGAUUUGGGGAUGGCUAUAAUGGGUAUGGAGGAGGACCAGGAGGUGGCAA | 0.172
GCAGGAAGUAAAAACAAAUGGAAAUGCUUCGGAUAGUGGCAGGGGUGGGGGUUGCUAAGGAAAGGGUGGGAUGGAAGUGGGUAAAGAGUU | 0.292
ACCAUGCAGGUGGGCAUCUUUUGGAAGUGGGGCAAGGGGGGGAUAGGGAGGGGGGUAACACUUUGGGAACAGGUGGUCCCAGGUCGUUUC | 0.909
CUGUGCUACACAUCGUAUGUACCGAAUCGGGGAAAAAAAGGGGAAAAAAAGGGGUUUGGGGAAAGUAUUAUGUUACGCCGUUCGGAUCUG | -0.511
UUUAAACUGAAGCCGCGGCCGAAAACGCCAAGAGAUUGAUGCUGUAGCUGCCCUGAGAUAACCAGGACUGUGGAAUCGGGAAGAGCUCAU | -0.817
CCUGUGCUACACAUCGUAUGUACCGAAUCAAACCCCCAAAUUUUUUUAAAUUUUUUUAAAAAAGUAUUAUGUUACGCCGUUCGGAUCUGC | 0.131
UGUGCUACACAUCGUAUGUACCGAAUCGGGGUUUUUGGGGAAAAAAAGGGGAAAAAAAGGGGAAAGUAUUAUGUUACGCCGUUCGGAUCU | 0.0983
UGGCCCUGGUGGCAUGCGGGGAGGAAGAGGUGGCCUCAUGGAUCGUGGUGGUCCCGGUGGAAUGUUCUGAGGUGGCCGUGGUGGAGACAG | -0.00646

Excerpt of the above (block 4):
Oligonucleotide | log2 enrichment
UGGCCCUGGUGGCAUGCGGGGAGGAAGAGGUGGCCUCAUGGAUCGUGGUGGUCCCGGUGGAAUGUUCAGAGGUGGCCGUGGUCGAGACAG | -0.219
ACCAUGCAGGUGGGCAUCUUUUGGAAGUGGGGCAAGGGGGGGAUAGGGAGGGGGGUAACACUUUGGGAACAGGUGGUCCCAGGUCGUUUC | 0.909
CUCAACGUUGACAGUAAUGAACAAGGCUCCUAUGUAGUGGCCAUGGAAACCUUUACCAACUUAGGACCCAUUGUCGAUAUGUGCGUGGUG | -0.438
UGUGCUACACAUCGUAUGUACCGAAUCGGGGUUUUUGGGGAAAAAAAGGGGAAAAAAAGGGGAAAGUAUUAUGUUACGCCGUUCGGAUCU | 0.0983
CUGUGCUACACAUCGUAUGUACCGAAUCGGGGAAAAAAAGGGGAAAAAAAGGGGUUUGGGGAAAGUAUUAUGUUACGCCGUUCGGAUCUG | -0.511
CCUGUGCUACACAUCGUAUGUACCGAAUCGGAAAAAAAGGGAAAAAAAGGGAAAAAAAGGAAAGUAUUAUGUUACGCCGUUCGGAUCUGC | -0.854
UAACUUUAGAGGAGGAUCUGAUGGAUAUGGCAGUGGACGUGGAUUUGGGGAUGGCUAUAAUGGGUAUGGAGGAGGACCAGGAGGUGGCAA | 0.172
